Results collected from several papers.
A part holds a random share of what one study measured.
Chain of UniProt P53671 (whole entry, looked up): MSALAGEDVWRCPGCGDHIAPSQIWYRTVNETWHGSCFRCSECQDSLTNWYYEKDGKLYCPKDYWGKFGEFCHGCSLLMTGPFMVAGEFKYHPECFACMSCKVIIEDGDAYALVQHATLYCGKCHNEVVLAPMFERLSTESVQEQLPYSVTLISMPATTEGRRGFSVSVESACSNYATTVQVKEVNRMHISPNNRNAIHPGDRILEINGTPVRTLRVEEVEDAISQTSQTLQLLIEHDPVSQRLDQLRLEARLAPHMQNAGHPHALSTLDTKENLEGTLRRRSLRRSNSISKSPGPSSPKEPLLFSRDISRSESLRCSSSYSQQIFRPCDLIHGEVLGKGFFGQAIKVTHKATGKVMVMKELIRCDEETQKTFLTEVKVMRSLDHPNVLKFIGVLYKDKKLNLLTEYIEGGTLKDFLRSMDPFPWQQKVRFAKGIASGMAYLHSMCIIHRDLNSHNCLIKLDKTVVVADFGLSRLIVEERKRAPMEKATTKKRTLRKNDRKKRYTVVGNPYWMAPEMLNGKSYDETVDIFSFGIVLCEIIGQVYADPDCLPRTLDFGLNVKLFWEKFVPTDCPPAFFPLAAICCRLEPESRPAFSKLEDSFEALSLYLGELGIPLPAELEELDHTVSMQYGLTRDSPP
Chain of UniProt Q9Y6R4 (whole entry, looked up): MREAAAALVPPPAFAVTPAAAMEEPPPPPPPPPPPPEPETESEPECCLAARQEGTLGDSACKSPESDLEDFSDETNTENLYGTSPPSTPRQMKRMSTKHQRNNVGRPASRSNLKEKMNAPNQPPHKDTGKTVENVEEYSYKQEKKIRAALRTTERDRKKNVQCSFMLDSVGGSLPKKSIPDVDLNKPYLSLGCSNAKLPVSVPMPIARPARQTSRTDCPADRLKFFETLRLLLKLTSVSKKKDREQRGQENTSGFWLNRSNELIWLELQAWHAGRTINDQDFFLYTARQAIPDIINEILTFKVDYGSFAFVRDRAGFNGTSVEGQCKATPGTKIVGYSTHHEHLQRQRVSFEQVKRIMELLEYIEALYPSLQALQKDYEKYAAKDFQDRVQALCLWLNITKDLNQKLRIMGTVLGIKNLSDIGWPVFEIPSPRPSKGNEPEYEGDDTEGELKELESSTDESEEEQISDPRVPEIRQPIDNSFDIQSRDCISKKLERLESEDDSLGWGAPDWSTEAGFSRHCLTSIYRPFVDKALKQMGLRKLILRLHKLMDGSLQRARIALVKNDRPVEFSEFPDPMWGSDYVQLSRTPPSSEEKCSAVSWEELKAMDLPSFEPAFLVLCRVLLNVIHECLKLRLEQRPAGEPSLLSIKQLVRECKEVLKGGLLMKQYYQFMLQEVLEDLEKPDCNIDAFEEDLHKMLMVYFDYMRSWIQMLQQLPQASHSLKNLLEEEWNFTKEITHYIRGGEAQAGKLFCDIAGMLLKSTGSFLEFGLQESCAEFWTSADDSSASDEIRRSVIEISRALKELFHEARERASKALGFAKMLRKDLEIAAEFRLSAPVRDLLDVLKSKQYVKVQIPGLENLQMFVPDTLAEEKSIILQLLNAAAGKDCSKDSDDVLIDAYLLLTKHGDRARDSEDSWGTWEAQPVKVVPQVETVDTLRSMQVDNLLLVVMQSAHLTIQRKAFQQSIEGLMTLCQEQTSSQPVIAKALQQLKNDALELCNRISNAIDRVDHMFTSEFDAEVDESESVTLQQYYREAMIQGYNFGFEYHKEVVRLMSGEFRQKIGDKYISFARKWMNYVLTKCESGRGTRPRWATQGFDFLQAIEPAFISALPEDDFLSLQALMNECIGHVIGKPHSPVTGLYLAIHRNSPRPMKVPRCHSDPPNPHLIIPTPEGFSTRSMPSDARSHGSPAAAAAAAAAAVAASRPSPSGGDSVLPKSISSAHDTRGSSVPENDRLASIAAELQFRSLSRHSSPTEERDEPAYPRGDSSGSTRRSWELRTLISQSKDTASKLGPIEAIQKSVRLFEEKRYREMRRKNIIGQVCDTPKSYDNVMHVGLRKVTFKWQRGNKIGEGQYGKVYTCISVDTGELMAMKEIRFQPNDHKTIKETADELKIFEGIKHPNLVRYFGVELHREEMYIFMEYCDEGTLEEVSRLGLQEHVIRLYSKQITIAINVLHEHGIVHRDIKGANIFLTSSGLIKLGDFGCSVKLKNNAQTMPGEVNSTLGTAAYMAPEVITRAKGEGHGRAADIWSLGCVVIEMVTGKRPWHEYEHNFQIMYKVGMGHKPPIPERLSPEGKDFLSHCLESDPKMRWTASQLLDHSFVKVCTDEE
Chain of UniProt Q9NRP7 (whole entry, looked up): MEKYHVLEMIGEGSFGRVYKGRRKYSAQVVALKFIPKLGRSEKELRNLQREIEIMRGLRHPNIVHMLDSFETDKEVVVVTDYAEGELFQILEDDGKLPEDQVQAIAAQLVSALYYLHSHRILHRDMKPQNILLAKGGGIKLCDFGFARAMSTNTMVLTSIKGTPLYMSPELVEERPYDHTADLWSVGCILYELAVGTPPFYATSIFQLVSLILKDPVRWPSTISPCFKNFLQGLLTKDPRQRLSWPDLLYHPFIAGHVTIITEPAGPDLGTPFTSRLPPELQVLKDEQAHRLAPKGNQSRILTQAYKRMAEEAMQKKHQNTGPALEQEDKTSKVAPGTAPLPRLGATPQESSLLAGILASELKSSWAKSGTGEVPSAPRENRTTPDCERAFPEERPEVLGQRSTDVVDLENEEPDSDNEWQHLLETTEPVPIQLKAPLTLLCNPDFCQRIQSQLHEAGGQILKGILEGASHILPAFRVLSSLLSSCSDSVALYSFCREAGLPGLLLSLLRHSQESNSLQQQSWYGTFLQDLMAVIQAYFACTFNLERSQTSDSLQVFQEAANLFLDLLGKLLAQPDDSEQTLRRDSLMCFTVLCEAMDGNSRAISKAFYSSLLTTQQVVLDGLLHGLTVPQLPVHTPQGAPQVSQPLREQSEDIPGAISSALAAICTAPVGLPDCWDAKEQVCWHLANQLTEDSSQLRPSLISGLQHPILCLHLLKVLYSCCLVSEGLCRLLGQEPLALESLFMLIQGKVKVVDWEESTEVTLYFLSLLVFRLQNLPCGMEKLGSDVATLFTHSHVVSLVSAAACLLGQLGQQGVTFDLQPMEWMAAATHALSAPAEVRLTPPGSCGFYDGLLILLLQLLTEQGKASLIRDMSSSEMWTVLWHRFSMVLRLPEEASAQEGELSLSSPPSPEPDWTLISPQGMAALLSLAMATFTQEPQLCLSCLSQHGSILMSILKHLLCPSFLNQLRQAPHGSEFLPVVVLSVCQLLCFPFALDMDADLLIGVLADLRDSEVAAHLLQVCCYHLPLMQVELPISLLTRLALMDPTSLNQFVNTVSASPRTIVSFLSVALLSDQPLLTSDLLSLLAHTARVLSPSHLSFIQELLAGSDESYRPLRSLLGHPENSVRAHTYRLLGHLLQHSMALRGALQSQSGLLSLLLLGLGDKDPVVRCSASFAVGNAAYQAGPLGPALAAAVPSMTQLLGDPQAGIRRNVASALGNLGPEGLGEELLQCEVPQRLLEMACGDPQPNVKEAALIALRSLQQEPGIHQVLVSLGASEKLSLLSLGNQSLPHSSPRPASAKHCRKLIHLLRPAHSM
Chain of UniProt P31751 (whole entry, looked up): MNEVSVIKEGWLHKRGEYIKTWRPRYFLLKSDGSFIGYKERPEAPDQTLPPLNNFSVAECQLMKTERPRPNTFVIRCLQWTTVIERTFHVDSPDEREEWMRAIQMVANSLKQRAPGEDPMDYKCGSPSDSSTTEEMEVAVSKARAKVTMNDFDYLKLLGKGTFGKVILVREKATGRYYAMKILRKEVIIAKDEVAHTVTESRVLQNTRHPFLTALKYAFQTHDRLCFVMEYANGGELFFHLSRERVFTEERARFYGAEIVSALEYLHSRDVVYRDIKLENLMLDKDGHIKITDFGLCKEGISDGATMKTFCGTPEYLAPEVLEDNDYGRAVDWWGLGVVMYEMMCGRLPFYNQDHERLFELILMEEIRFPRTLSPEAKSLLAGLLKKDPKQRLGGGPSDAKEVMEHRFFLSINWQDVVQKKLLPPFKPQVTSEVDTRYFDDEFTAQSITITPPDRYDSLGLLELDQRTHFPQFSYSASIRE
Chain of UniProt Q52WX2 (whole entry, looked up): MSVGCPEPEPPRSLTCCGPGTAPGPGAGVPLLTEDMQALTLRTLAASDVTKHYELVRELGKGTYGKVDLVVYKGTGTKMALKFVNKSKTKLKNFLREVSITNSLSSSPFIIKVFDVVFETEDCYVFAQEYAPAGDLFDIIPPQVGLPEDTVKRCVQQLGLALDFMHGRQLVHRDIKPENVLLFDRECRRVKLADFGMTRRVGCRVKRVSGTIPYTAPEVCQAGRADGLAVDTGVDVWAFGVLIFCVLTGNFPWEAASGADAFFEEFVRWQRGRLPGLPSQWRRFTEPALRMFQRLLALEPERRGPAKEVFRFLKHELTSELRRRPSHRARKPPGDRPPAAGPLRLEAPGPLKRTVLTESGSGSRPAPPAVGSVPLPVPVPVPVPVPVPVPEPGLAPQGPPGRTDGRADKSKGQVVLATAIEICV

Block 1
Target: MAP kinase-interacting serine/threonine-protein kinase 1 (MKNK1, Homo sapiens, UniProt Q9BUB5)
Chain of UniProt Q9BUB5 (whole entry, looked up): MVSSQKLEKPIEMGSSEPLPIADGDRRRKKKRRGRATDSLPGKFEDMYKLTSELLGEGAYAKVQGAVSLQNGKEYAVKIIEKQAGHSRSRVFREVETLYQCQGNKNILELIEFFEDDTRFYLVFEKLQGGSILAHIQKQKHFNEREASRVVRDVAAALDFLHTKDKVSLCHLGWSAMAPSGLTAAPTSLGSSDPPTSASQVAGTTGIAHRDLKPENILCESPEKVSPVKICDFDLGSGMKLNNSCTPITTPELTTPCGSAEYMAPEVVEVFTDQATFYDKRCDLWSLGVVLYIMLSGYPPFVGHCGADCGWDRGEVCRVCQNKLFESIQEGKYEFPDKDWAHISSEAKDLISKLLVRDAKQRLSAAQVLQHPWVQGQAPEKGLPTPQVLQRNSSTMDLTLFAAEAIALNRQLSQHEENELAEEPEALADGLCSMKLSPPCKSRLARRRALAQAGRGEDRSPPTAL
Read-out: enzyme activity
Action: inhibitor
Concentration: 0.5 µM
Baseline: control
SMILES | remaining activity [%]
O=S(=O)(c1cccc2cnccc12)N1CCCNCC1 | 91.8
Nc1[nH]nc2nc3ccccc3nc12 | 97.4
O=c1c2ccccc2[nH]c(=S)n1CCN1CCC(=C(c2ccc(F)cc2)c2ccc(F)cc2)CC1 | 101
Cc1cccc(-c2[nH]c(C(C)(C)C)nc2-c2ccc3c(c2)OCO3)n1 | 86.8
O=C1NC(=O)C(c2cn(CCCO)c3ncccc23)=C1c1cnccn1 | 100
Cc1nc(-c2ccccc2)c(-c2ccncc2)o1 | 123
Oc1ccc(-c2nc(-c3ccncc3)c(-c3ccc(F)cc3)[nH]2)cc1 | 102
CC(C)[C@H](CO)Nc1nc(Nc2cc(N)cc(Cl)c2)c2ncn(C(C)C)c2n1 | 99.1
O=C(O)c1ccc2c3c1cccc3c(=O)n1c3ccccc3nc21 | 60.3
CO[C@H]1C[C@@H]2CC[C@@H](C)[C@@](O)(O2)C(=O)C(=O)N2CCCC[C@H]2C(=O)O[C@H]([C@H](C)C[C@@H]2CC[C@@H](O)[C@H](OC)C2)CC(=O)[C@H](C)/C=C(\C)[C@@H](O)[C@@H](OC)C(=O)[C@H](C)C[C@H](C)/C=C/C=C/C=C/1C | 101
COc1cc2ncnc(Nc3ccc(Oc4ccccc4)cc3)c2cc1OC | 98.9
COc1cc2ncnc(Nc3ccc(F)c(Cl)c3)c2cc1OCCCN1CCOCC1 | 41.9
Cn1c2ccccc2c2c3c(c4c5ccccc5n(CCC#N)c4c21)CNC3=O | 75.2
Cc1ccc(Nc2nccc(N(C)c3ccc4c(C)n(C)nc4c3)n2)cc1S(N)(=O)=O | 102
COc1ccc(CNC(=O)Nc2ncc([N+](=O)[O-])s2)cc1 | 98.4

Block 2
Target: TAR DNA-binding protein 43, full length, His tag (TARDBP, Homo sapiens, UniProt Q13148, residues 1-414)
Method: RNA Bind-n-Seq
Molecule type: RNA
Sample: in vitro
Concentration: 20 nM
Setting: 6-mer, flanks averaged, single round
With: 150 mM LiCl
Baseline: input library
Reading: higher = stronger binding
Sequence | 6-mer enrichment (R)
CACGAA | 0.826
UCCCGC | 0.945
ACAUAA | 0.871
GAAUGC | 1.06
UCGUUG | 0.971
UCGAUA | 0.825
UCAUUC | 0.872
AGUUUG | 1.23

Block 3
Target: Prothrombin, mature alpha-thrombin (F2, Homo sapiens, UniProt P00734)
Method: aptamer microarray, sandwich
Molecule type: DNA with 2'F-ANA
Sample: in vitro
Concentration: 200 nM
Setting: whole 15-mer aptamer, many near background
With: Cy3 exosite-II aptamer, 400 nM
Reading: higher = stronger binding
Sequence: GGTTGGTGTGGTTGG
Modification | mean fluorescence intensity [a.u.]
2'F-ANA at 1 2 3 4 5 7 12 15 | 115
2'F-ANA at 1 2 3 4 6 7 9 12 15 | 266
2'F-ANA at 1 5 6 8 9 10 11 12 15 | 51.6
2'F-ANA at 1 3 4 5 7 9 10 14 | 43.4
2'F-ANA at 1 2 3 4 5 8 9 11 12 14 | 49.1
2'F-ANA at 1 4 6 9 10 12 13 14 15 | 46.2
2'F-ANA at 2 3 4 5 6 10 11 13 15 | 87.3
2'F-ANA at 2 4 6 8 9 10 14 | 57.1

Block 4
Compound: FC(F)(F)c1ccc2c(c1)nc(-c1cccnc1)n2C1CC1
Read-out: cell-free assay
Method: competition with immobilised ligand
Concentration: 1 µM
target | remaining binding [%]
SBK1 (Homo sapiens, UniProt Q52WX2) | 100
MET (Homo sapiens, UniProt P08581, M1250T) | 100
STK36 (Homo sapiens, UniProt Q9NRP7) | 84
MELK (Homo sapiens, UniProt Q14680) | 94
EGFR (Homo sapiens, UniProt P00533, del746-750) | 100
HASPIN (Homo sapiens, UniProt Q8TF76) | 96
MAP3K3 (Homo sapiens, UniProt Q99759) | 100
Ribosomal protein S6 kinase alpha-6, C-terminal kinase domain (RPS6KA6, Homo sapiens, UniProt Q9UK32) | 100
LIM domain kinase 2 (LIMK2, Homo sapiens, UniProt P53671) | 100
CSNK2A2 (Homo sapiens, UniProt P19784) | 100
MAP3K4 (Homo sapiens, UniProt Q9Y6R4) | 100
MAP4K2 (Homo sapiens, UniProt Q12851) | 73
AKT2 (Homo sapiens, UniProt P31751) | 100
CDK11A (Homo sapiens, UniProt Q9UQ88) | 100

A few entries again (block 1):
SMILES | remaining activity [%]
CO[C@H]1C[C@@H]2CC[C@@H](C)[C@@](O)(O2)C(=O)C(=O)N2CCCC[C@H]2C(=O)O[C@H]([C@H](C)C[C@@H]2CC[C@@H](O)[C@H](OC)C2)CC(=O)[C@H](C)/C=C(\C)[C@@H](O)[C@@H](OC)C(=O)[C@H](C)C[C@H](C)/C=C/C=C/C=C/1C | 101
COc1cc2ncnc(Nc3ccc(Oc4ccccc4)cc3)c2cc1OC | 98.9
COc1cc2ncnc(Nc3ccc(F)c(Cl)c3)c2cc1OCCCN1CCOCC1 | 41.9
Cn1c2ccccc2c2c3c(c4c5ccccc5n(CCC#N)c4c21)CNC3=O | 75.2
Cc1ccc(Nc2nccc(N(C)c3ccc4c(C)n(C)nc4c3)n2)cc1S(N)(=O)=O | 102
COc1ccc(CNC(=O)Nc2ncc([N+](=O)[O-])s2)cc1 | 98.4
